Results collected from several papers.
Numbered parts are unrelated; each lists some results of a single study. Substitutions count along the parent as printed.

Block 1 — target: MAFG, bZIP domain (human); method: DHFR protein complementation; sample: yeast; baseline: wild-type JUN-FOS pair; direction: higher = stronger binding
Setting: single substitutions, most at no-binding floor
Starting sequence: JUN, bZIP domain (human); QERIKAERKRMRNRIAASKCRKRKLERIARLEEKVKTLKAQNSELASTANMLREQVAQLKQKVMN; partner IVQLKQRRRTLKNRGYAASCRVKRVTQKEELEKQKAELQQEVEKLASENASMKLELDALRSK
`L45I` has a binding fitness of -1.52 natural log.
`I28W` gave a binding fitness of -1.25 natural log.
`L52D` gave a binding fitness of -1.42 natural log.
`T48S` has a binding fitness of -1.43 natural log.
With `K34T` the binding fitness was -1.15 natural log.
With `L52N` the binding fitness was -1.48 natural log.
With `E32I` the binding fitness was -1.5 natural log.
For `Q55N`, the binding fitness was -1.44 natural log.

Block 2 — target: CCNA1, cyclin fold, Cln2 fusion (human); method: yeast growth competition, sequencing; sample: yeast; setting: weak parent motif; baseline: not given; direction: higher = stronger binding
Starting sequence: GMNC docking peptide (human); KNAKRNLSSEFAN; partner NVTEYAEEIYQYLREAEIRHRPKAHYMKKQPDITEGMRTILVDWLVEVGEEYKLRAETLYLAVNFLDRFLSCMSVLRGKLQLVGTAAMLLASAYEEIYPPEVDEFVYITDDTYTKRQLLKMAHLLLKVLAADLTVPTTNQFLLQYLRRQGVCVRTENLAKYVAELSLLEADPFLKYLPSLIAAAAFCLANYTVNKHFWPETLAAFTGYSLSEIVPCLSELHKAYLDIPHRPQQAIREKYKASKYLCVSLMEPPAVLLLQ
Under “normalised enrichment score”, `N6T` is recorded as -0.000295.
Under “normalised enrichment score”, `S8W` is recorded as 0.142.
`E10I` — result for “normalised enrichment score”: 0.314.
`R5K`: “normalised enrichment score” 0.243.
Under “normalised enrichment score”, `L7A` is recorded as 0.335.
Under “normalised enrichment score”, `E10H` is recorded as 0.0699.
`R5A`: “normalised enrichment score” 0.244.
Under “normalised enrichment score”, `A3D` is recorded as 0.167.
`R5M`: “normalised enrichment score” 0.419.
For `A12R`, “normalised enrichment score” read 0.582.
Under “normalised enrichment score”, `F11G` is recorded as 0.23.
For `E10L`, “normalised enrichment score” read -0.214.
Under “normalised enrichment score”, `S9C` is recorded as 0.643.
Under “normalised enrichment score”, `S9W` is recorded as 0.489.
`E10M` — result for “normalised enrichment score”: 0.0578.

Block 3 — method: Sort-seq; item: YFP reporter; sample: E. coli; setting: PhoQ-PhoP variant library; added: 10 µM Mg2+; baseline: high Mg2+ state; direction: higher = stronger signaling
Substance: PhoQ, residues 284 288 289 292 302 303 SQSLSM
PhoP, residues 12 14 15 18 19 TQALL (Escherichia coli, UniProt P23836) — fold induction: 9.27.
It gave 2.82 for fold induction (PhoP, residues 12 14 15 18 19 QYFSL (Escherichia coli, UniProt P23836)).
For PhoP, residues 12 14 15 18 19 NYFRM (Escherichia coli, UniProt P23836): fold induction read 9.21.

Block 4 — method: protein-binding microarray; form: double-stranded DNA, one strand shown; sample: in vitro; concentration: 250 nM; setting: 60-bp whole probe; added: salmon DNA 0.4 mg/ml; baseline: random background probes; direction: higher = stronger binding; all sequences stand within: GCCTAGCAC … GTCTTGATTCGCTTGACGCTGCTG
Target: Interferon regulatory factor 7, full length, phosphomimetic (IRF7, Homo sapiens, UniProt Q92985, residues 1-503, S101K/S471D/S472D/S475D/S476D/S477D/S483D/S484D/S487D)
Sequence of UniProt Q92985 (whole entry, unmodified, looked up): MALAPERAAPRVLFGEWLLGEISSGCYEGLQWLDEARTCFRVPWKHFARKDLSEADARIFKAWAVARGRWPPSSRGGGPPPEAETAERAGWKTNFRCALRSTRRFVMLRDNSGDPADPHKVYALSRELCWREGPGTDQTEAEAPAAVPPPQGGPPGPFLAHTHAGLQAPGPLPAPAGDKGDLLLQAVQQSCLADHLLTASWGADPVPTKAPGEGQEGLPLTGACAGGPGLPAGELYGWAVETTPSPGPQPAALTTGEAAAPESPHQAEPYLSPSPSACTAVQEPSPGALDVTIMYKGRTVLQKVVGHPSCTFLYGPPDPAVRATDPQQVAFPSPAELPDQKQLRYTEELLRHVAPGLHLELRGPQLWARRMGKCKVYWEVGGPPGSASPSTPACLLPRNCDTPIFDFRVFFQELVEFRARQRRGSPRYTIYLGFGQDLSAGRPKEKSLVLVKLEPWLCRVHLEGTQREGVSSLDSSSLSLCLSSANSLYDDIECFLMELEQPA
With `GACGTTTTCGACTTTCGGGACGTGCTA` the log fluorescence was 3.65 z-score.
`TTAGAACTGAGTGTCGATTAGTGCTAG` gave a log fluorescence of -0.174 z-score.
For `TTACGTTTCCTTTTCCTTTAGTGCTAG`, the log fluorescence was 3.96 z-score.
The log fluorescence of `GACGAACTGAAACTGGAGACGTGCTAG` is reported as 1.08 z-score.
`GGCGATTTCAGTTTCGAGACGTGCTAG` has a log fluorescence of 4.2 z-score.
With `TCAATTTTTTTTTTCTAACTGTGCTAG` the log fluorescence was 0.52 z-score.
With `GAATGTCTTCCCCTCTCATTGTGCTAG` the log fluorescence was 0.685 z-score.
With `TTAGGACAGCTTTTCCTTTAGTGCTAG` the log fluorescence was 0.596 z-score.
`TTAGAATTCAGTATCGATTAGTGCTAG` has a log fluorescence of 0.947 z-score.
`TAGTTTATACTCTAGATGATGTGCTAG` has a log fluorescence of 0.733 z-score.
`TTTGGTATCCTTCTCCTTTAGTGCTAG` has a log fluorescence of 0.359 z-score.
`TTAGGTTTCAGTTCCGGTTAGTGCTAG` gave a log fluorescence of 5.17 z-score.
For `TCAGTTTTAGGTCCCTTACTGTGCTAG`, the log fluorescence was 0.645 z-score.
The log fluorescence of `TACGGTATCGGTATCGGGACGTGCTAG` is reported as 1.34 z-score.

Repeated from above (block 4):
With `GAATGTCTTCCCCTCTCATTGTGCTAG` the log fluorescence was 0.685 z-score.
For `TCAGTTTTAGGTCCCTTACTGTGCTAG`, the log fluorescence was 0.645 z-score.
`TTAGGTTTCAGTTCCGGTTAGTGCTAG` gave a log fluorescence of 5.17 z-score.
